Published values pooled from the literature.
Lines come from different studies, so protocols differ. “And” joins repeats or separate records; there may be more than shown. ± marks the error that the study gave.
TOP2A: DNA topoisomerase 2-alpha (TOP2A, Homo sapiens, UniProt P11388)
UniProt P11388, sequence (whole entry, looked up): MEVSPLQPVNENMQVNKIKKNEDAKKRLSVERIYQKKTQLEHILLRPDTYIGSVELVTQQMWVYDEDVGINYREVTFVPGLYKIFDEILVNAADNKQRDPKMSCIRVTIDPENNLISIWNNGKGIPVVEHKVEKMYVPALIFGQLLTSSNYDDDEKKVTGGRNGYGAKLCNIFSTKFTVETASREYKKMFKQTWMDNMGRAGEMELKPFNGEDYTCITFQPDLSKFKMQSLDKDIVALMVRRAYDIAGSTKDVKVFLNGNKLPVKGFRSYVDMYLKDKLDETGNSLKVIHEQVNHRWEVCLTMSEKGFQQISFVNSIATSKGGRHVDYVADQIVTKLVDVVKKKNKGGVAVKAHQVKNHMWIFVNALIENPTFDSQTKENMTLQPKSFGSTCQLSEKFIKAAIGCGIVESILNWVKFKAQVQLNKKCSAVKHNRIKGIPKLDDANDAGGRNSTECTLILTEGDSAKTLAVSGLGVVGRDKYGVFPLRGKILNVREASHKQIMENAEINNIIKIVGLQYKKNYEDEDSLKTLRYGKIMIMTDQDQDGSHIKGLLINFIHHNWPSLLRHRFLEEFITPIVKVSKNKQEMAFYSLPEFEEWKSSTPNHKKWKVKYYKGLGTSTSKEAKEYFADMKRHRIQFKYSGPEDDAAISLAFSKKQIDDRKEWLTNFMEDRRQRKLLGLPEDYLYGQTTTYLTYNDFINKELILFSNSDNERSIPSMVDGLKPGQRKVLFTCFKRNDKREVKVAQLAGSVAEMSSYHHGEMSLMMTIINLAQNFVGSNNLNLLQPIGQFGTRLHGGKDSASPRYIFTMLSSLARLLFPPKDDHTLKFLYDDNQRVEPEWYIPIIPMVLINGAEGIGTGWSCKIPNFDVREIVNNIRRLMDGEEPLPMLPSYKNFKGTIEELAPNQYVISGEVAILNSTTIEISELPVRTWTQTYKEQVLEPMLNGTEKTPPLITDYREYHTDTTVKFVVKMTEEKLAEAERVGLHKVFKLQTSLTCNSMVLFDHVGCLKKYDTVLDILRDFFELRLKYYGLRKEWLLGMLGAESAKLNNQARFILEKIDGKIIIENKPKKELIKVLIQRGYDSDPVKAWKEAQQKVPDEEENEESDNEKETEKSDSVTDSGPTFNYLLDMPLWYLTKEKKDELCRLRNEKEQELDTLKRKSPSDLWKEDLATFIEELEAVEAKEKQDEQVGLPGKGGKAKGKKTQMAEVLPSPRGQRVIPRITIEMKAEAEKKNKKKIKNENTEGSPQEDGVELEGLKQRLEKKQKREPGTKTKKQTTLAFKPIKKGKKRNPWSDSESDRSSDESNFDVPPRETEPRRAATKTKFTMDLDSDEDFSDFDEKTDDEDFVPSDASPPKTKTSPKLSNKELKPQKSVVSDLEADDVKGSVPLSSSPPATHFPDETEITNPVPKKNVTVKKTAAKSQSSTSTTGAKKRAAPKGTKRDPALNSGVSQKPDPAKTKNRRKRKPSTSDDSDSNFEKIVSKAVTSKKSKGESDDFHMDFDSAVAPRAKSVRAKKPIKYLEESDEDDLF
Pteridine reductase 1: Pteridine reductase 1 (Leishmania major, UniProt Q01782)
UniProt Q01782, sequence (whole entry, looked up): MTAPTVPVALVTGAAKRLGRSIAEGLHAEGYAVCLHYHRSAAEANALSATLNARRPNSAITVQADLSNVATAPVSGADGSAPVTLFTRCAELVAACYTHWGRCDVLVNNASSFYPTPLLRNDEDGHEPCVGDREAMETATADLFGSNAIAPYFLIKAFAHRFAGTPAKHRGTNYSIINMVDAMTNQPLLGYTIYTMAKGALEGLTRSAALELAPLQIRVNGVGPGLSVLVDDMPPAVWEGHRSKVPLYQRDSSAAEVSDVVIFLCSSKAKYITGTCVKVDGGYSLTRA
BEST2: Bestrophin-2a (BEST2, Homo sapiens, UniProt Q8NFU1)
UniProt Q8NFU1, sequence (whole entry, looked up): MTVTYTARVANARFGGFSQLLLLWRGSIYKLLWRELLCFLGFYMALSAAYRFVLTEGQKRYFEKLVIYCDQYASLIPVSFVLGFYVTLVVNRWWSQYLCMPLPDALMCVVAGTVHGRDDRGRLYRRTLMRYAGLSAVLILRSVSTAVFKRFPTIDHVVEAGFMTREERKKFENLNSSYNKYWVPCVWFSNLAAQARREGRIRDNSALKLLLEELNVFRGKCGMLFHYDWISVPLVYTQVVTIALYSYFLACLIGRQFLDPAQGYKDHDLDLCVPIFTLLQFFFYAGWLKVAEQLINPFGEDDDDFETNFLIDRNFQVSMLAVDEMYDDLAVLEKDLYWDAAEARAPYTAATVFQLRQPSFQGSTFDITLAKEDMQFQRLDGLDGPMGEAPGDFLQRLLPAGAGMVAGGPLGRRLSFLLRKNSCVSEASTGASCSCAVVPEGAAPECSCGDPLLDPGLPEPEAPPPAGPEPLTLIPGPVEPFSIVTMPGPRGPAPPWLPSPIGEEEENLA
T1: DNA junction; chain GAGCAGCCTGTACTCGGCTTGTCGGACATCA; chain TCTGATGTGGCTGC; chain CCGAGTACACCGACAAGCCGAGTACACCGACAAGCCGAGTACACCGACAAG
T2: G-quadruplex RNA, intermolecular parallel G4 (Homo sapiens); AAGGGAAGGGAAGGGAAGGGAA
UniProt O76090, sequence (whole entry, looked up): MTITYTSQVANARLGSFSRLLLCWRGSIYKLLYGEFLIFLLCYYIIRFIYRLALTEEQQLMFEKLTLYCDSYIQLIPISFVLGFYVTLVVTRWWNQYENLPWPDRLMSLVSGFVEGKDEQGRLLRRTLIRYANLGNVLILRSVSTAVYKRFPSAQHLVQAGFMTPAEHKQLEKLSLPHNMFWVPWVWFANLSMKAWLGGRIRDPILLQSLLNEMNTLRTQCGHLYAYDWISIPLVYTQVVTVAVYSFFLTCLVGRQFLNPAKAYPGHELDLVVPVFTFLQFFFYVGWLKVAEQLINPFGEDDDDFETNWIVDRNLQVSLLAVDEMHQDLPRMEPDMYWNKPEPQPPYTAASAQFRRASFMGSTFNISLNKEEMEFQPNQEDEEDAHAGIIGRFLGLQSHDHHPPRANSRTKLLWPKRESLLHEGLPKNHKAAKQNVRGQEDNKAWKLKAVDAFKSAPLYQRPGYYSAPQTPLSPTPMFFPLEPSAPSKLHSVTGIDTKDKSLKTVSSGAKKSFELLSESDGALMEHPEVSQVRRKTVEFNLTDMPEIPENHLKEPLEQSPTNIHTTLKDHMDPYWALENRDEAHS
UniProt Q16774, sequence (whole entry, unmodified, looked up): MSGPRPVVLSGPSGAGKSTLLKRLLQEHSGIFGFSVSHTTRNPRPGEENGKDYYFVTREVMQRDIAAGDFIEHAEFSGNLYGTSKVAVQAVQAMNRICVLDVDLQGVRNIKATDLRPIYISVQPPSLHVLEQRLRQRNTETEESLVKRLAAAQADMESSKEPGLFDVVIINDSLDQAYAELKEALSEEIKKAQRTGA
UniProt Q96S37, sequence (whole entry, looked up): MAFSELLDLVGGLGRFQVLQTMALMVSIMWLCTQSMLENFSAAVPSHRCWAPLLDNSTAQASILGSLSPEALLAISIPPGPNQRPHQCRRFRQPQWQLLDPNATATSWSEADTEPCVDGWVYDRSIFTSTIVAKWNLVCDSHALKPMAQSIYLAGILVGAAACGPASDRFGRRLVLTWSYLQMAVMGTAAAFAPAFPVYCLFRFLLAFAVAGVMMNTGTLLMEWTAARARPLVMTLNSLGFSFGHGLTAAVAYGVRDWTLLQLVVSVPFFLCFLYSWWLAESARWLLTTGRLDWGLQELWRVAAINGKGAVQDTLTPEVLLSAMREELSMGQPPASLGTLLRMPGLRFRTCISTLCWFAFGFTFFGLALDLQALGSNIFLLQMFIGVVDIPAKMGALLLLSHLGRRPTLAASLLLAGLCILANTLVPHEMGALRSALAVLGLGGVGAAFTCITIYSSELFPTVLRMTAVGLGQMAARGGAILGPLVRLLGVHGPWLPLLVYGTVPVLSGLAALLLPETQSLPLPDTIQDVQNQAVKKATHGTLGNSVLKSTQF
UniProt Q9EP73, sequence (whole entry, looked up): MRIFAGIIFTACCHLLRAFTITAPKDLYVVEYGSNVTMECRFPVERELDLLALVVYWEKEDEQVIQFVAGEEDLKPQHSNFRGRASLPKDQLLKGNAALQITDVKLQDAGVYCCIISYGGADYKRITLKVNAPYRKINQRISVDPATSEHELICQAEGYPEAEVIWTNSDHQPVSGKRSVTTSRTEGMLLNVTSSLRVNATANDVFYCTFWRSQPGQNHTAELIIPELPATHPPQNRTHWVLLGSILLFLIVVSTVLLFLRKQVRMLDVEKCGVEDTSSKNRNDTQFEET
UniProt P51575, sequence (whole entry, unmodified, looked up): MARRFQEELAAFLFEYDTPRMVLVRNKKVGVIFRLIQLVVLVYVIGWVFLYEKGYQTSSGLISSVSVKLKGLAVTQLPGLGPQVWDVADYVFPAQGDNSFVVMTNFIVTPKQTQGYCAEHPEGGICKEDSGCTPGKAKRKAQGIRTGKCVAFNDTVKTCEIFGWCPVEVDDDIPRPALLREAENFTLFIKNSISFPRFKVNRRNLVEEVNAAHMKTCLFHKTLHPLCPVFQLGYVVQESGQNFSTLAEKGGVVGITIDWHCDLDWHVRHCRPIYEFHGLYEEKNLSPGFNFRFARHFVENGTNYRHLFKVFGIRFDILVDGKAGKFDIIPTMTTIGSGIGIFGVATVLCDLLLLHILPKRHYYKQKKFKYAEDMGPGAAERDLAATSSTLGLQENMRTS
UniProt P10826, sequence (whole entry, looked up): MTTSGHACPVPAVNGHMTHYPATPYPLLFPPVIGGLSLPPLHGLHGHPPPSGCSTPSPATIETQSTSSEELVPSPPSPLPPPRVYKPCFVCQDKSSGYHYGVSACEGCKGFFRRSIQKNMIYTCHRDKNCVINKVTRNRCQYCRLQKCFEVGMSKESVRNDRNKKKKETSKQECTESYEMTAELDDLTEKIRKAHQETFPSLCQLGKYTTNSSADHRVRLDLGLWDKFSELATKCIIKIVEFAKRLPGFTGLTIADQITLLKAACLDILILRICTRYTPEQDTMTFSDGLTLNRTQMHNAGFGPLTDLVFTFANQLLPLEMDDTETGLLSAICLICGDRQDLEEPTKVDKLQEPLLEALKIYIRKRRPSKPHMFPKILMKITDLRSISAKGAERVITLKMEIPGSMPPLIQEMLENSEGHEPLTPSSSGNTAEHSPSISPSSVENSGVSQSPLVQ
UniProt P00441, sequence (whole entry, unmodified, looked up): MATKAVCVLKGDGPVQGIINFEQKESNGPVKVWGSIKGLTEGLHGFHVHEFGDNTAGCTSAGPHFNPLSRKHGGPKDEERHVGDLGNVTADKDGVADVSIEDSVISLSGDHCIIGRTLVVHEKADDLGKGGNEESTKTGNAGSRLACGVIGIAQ

| SMILES | target | assay | system | setting | how to read | measurement | result |
| --- | --- | --- | --- | --- | --- | --- | --- |
| COc1nc(-c2cccc(-c3ccccc3)c2C)ccc1CNCCNC(=O)CCCCCCCCCCC(=O)N1CCN(CCNC(=O)c2cc3c(=O)n4cccc(C)c4nc3n(CCc3cccs3)c2=N)CC1 | Programmed cell death 1 ligand 1 (CD274, Homo sapiens, UniProt Q9NZQ7) | degrader, western blot | HL-60 | 1 µM |  | degradation | > 50% |
| O=c1nc(SCc2cc(F)cc(C(F)(F)F)c2)nc(SCc2ccc3nc(Cl)ccc3c2)[nH]1 | TOP2A | DNA cleavage |  | 125 µM |  | mean linear DNA | 3.24% |
| c1ccc(-c2n[nH]cc2-c2ccnc3ccccc23)nc1 | Mitogen-activated protein kinase MKC1 (MKC1, Candida albicans, UniProt P43068) | kinase binding, competitor, MIB/MS competition, item: MKC1 | Candida albicans cell lysate | 10 µM | reference: DMSO | log2 fold change | 1.25 |
| COc1ccc(Oc2ccc(CN(C)Cc3cnc4nc(N)nc(N)c4n3)cc2)cc1 | Pteridine reductase 1 |  |  | hDHFR weight 10 | reference: LmPTR1, LmDHFR over hDHFR, 1.0 selective, 0.0 non-selective | partition index | 0.96 |
| [O-][S+]1CCCCS1 (centres unmarked) | Superoxide dismutase [Cu-Zn] (SOD1, Homo sapiens, UniProt P00441, G94A) | item: SOD1 dimer | SOD1 G93A transgenic mice, blood | iv, 10 mg/kg once daily |  | target engagement | 65.5% |
| O=c1cc(-c2ccc(OS(=O)(=O)[O-])cc2)oc2cc(OS(=O)(=O)[O-])cc(OCc3cccc(COc4cc(OS(=O)(=O)[O-])cc5oc(-c6ccc(OS(=O)(=O)[O-])cc6)cc(=O)c45)n3)c12.[Na+].[Na+].[Na+].[Na+] | Neutrophil elastase (ELANE, Homo sapiens, UniProt P08246) |  |  | 1000 nM, with: chromogenic substrate |  | Vmax | 15.3 ± 1.6 mAU/min |
| O=C(O)C1=CCNCC1 | BEST2 | whole-cell patch clamp | HEK293 transiently expressing channel | concentration not given, membrane potential -20 mV |  | current density | -35 pA/pF and -53.5 pA/pF and -49.4 pA/pF and -87 pA/pF and -38.2 pA/pF |
| O=C(COP(=O)(O)O)[C@@H](O)[C@H](O)[C@H](O)COP(=O)(O)O | HMGCS1 (Homo sapiens, UniProt Q01581) | thermal proteome profiling | HepG2 cell lysate | concentration not given, 57 over 37 °C, mean | reference: compound over control | thermal stability ratio | 0.604 |
| O=C(O)[C@@H]1CCCN1c1ncnc2[nH]cnc12 (racemic) | Histone-lysine N-methyltransferase SETDB1, triple tudor domain (SETDB1, Homo sapiens, UniProt Q15047) | binding, affinity selection mass spectrometry |  |  | reference: other proteins in batch | log fold enrichment | -0.00111 |
| CC[n+]1c(-c2ccccc2)c2cc(N)ccc2c2ccc(N)cc21 | T1, DNA junction | fluorescence enhancement |  | 20 °C, Mg2+ 12.5 mM, ethidium displacement |  | binding | binds |
| CC(C)(C)NC(=O)C[C@H](NC(=O)C(=O)c1c[nH]c2ccccc12)C(=O)NCc1cccc(B(O)O)c1 | Proteasome component C5/PSMB5 (Homo sapiens, UniProt P20618+P28074) |  |  |  | reference: IC50 β5c over IC50 β5i | selectivity ratio | 700 fold |
| COc1ccc(F)cc1C(=O)NCc1ccc(-c2nn([C@@H](C)C(F)(F)F)c(N)c2C(N)=O)cc1 | Proto-oncogene tyrosine-protein kinase receptor Ret (RET, Homo sapiens, UniProt P07949) | kinase activity, inhibitor, HotSpot radiometric |  | 1000 nM, with: ATP at Km |  | remaining activity | 53.9 ± 1.2% |
| CC[C@@H](C)[C@@H](NC(=O)[C@@H](Cc1ccc(O)cc1)NC(=O)[C@H]1CCCN1C(=O)[C@@H](CCCNC(=N)N)NC(=O)[C@H](N)Cc1c[nH]cn1)C(=O)N[C@H](C)C(=O)N[C@H](Cc1c[nH]cn1)C(=O)N[C@H](CCCNC(=N)N)C(=O)N[C@@H](C(=O)N[C@H](Cc1ccc(O)cc1)C(=O)N[C@H](CO)C(=O)N[C@H](Cc1ccccc1)C(N)=O)C(C)C | Programmed cell death 1 ligand 1, with PD-1 (Cd274, Mus musculus, UniProt Q9EP73) | PD-1-Fc binding | HEK293T-mPD-L1 | concentration not given, 48 h |  | PD-L1 blocking rate | 8.62% and 12.7% and 8.58% |
| Cc1c(COc2ccc(CN3CCCCC3C(=O)O)cc2Br)cccc1-c1ccccc1 (centres unmarked) | Programmed cell death 1 ligand 1 (Cd274, Mus musculus, UniProt Q9EP73) | western blot | mouse B16-F10 tumour, tumour | dose not given | reference: control | protein level | 70% and 121% and 94% |
| C[C@@H](N)[C@H]1CC[C@H](C(=O)Nc2ccncc2)CC1 | Serine/threonine-protein kinase N1 (PKN1, Homo sapiens, UniProt Q16512) | inhibitor |  |  |  | Hill slope | -0.841 |
| CN(C)c1ccc(Nc2c3ccc(NC(=O)CCN4CCCC4)cc3nc3cc(NC(=O)CCN4CCCC4)ccc23)cc1 | T2, G-quadruplex RNA, intermolecular parallel G4 (Homo sapiens) | 1H NMR peak broadening |  |  |  | binding | binds |
| O=C(NC1CCC1)c1ccc2nc(-c3cccc(NS(=O)(=O)NCCN4CCCCC4)c3)cn2c1 | Phosphatidylinositol 3-kinase C2 domain-containing subunit gamma (PIK3C2G, Homo sapiens, UniProt O75747) | enzyme activity |  | 10 µM |  | remaining activity | 75% |
| Nc1nc2c(ncn2[C@@H]2O[C@H](COP(=O)(O)O)[C@@H](O)[C@H]2O)c(=O)[nH]1 | GUK1 (Homo sapiens, UniProt Q16774, E72A) | enzyme activity, NADH-coupled |  | 7.812 µM |  | reaction rate | -0.423 s⁻¹ and -0.449 s⁻¹ and 0.107 s⁻¹ |
| COc1cc(F)ccc1-c1ncnc(Nc2cccc(C[S@](C)(=N)=O)c2)n1 | Homeodomain-interacting protein kinase 1 (HIPK1, Homo sapiens, UniProt Q86Z02) | kinase activity |  | 10 µM, with: 10 µM ATP |  | remaining activity | 85% |
| Nc1ncnc2c1ncn2[C@@H]1O[C@H](COP(=O)(O)CP(=O)(O)OP(=O)(O)O)[C@@H](O)[C@H]1O | P2X purinoceptor 1 (P2RX1, Homo sapiens, UniProt P51575, D170A) | saturation binding |  | 52 nM |  | specific binding | 183 corrected cpm and 159 corrected cpm and 224 corrected cpm |
| C[C@@H]1C[C@H](Nc2ccccc2)c2cc(F)ccc2N1C(=O)c1ccnc(F)c1 | Ecdysone receptor (Aedes albopictus, UniProt Q9U3Y4) | ligand binding, inhibitor | intact cells | with: [3H]ponasterone A | direction not given | pIC50 Z-score | 1.06 |

| SMILES | target | assay | system | setting | how to read | measurement | result |
| --- | --- | --- | --- | --- | --- | --- | --- |
| c1ccc(CCCCCOCCc2ccc3[nH]nnc3c2)cc1 | ATP2A2 (Sus scrofa, UniProt P11607) | ATPase activity, inhibitor | pig microsomes | concentration not given | reference: vehicle | reduction in Vmax | ~87% |
| O=c1nc(SCc2cc(F)cc(C(F)(F)F)c2)nc(SCc2ccc3ccccc3n2)[nH]1 | TOP2A | decatenation |  | 125 µM, replicate 1 |  | decatenated DNA | 0% |
| CCc1oc2ccccc2c1C(=O)c1cc(Br)c(O)c(Br)c1 | Solute carrier family 22 member 12 (SLC22A12, Homo sapiens, UniProt Q96S37) | inhibitor | HEK-293T | 1 µM, 10 min, 37 °C, with: [14C]urate 10 µM |  | normalized urate uptake | 0.353 and 0.383 and 0.368 |
| CN(Cc1cnc2nc(N)nc(N)c2n1)c1ccc(C(=O)N2CCCCC2)cc1 | Pteridine reductase 1 |  |  | hDHFR weight 10 | reference: LmPTR1, LmDHFR over hDHFR, 1.0 selective, 0.0 non-selective | partition index | 0.96 |
| O=C(O)c1ccc(Nc2ncc3c(n2)-c2ccc(Cl)cc2C(c2c(F)cccc2F)=NC3)cc1 | human SRPK2(h) | kinase activity |  | 1 µM |  | remaining activity | 87% |
| CC1(C)NC(=O)N(c2ccc3c(c2)OC(F)(F)O3)C1=O | Androgen receptor (AR, Homo sapiens, UniProt P10275) | DHT-induced transcription, antagonist, luciferase reporter | LAPC4 | with: dihydrotestosterone | reference: 1 | potency relative to reference | 2 fold |
| O=c1nc(SCc2cc(F)cc(C(F)(F)F)c2)nc(SCc2ccc3ncsc3c2)[nH]1 | TOP2A | decatenation |  | 7.8 µM, replicate 2 |  | decatenated DNA | 100% |
| Nc1ccc(C(=O)O)cc1 | BEST1 (Homo sapiens, UniProt O76090) | whole-cell patch clamp | HEK293 transiently expressing channel | concentration not given, membrane potential -100 mV |  | current density | -54.4 pA/pF and -112 pA/pF and -99.2 pA/pF and -55.2 pA/pF and -84.9 pA/pF and -59.7 pA/pF and -74.2 pA/pF |
| CC(C)c1cccc2c(-c3ccccc3)cc(-c3ccc(-c4ccc(C(=O)O)cc4)[nH]3)nc12 | Retinoic acid receptor beta (RARB, Homo sapiens, UniProt P10826) | reporter gene, antagonist |  |  | reference: IC50 RARα over IC50 RARB | selectivity ratio | > 100 fold |
| CCOC(=O)C1=C(CN2CCc3ccccc32)NC(=O)NC1c1ccccc1OC(F)F (centres unmarked) | AASS, SDH domain (Homo sapiens, UniProt Q9UDR5) | binding, surface plasmon resonance |  | 1.667 µM |  | SPR response | 4.67 RU |
| CCN1CCC[C@H]1CNC(=O)c1c(O)c(Cl)cc(Cl)c1OC | Adhesion G-protein coupled receptor F3 (ADGRF3, Homo sapiens, UniProt Q8IZF5) | β-arrestin recruitment, TANGO luminescence, item: GPR113 |  | concentration not given | reference: basal luminescence | log2 fold change | 0.09 |
| Cc1nc(CSc2nc(SCc3cc(F)cc(C(F)(F)F)c3)nc(=O)[nH]2)cs1 | TOP2A | decatenation |  | 31.25 µM, replicate 1 |  | decatenated DNA | 94.5% |
| CC(=O)N[C@H](C(=O)N1C[C@H](O)C[C@H]1C(=O)NCc1ccc(-c2scnc2C)cc1)C(C)(C)SCCCCCCNC(=O)C[C@@H]1N=C(c2ccc(Cl)cc2)c2c(sc(C)c2C)-n2c(C)nnc21 | BRD2/VHL, BD2; with VCB (Homo sapiens, UniProt P25440+P40337) | ternary complex binding, ITC |  | 25 °C, unit not given, with: VHL-ElonginB-ElonginC, PROTAC:Brd2^BD2 | reference: binary binding to VHL-ElonginB-ElonginC, positive = cooperative | ΔpKd ternary minus binary | 0.61 ± 0.05 |
| Cc1cccc(N2CC(C(=O)O)CC2=O)c1 (centres unmarked) | DNA damage-binding protein 1 (DDB1, Homo sapiens, UniProt Q16531) | binding, affinity selection mass spectrometry |  |  | reference: other proteins in batch | fold enrichment | 1.05 |
| O=C(O)c1ccc(O)cc1 | BEST2 | whole-cell patch clamp | HEK293 transiently expressing channel | concentration not given, membrane potential -80 mV |  | current density | -111 pA/pF and -199 pA/pF and -130 pA/pF and -227 pA/pF and -205 pA/pF and -84.1 pA/pF and -257 pA/pF |
| Clc1ccc(Cn2nc(-c3nc(-c4ccccc4)no3)c3ccccc32)c(Cl)c1 | Hexokinase-2 (HK2, Homo sapiens, UniProt P52789) | ADP-Glo |  | 100 µM, 40 min | reference: DMSO | enzyme activity | increased |
| Cc1nc(CSc2nc(SCc3ccc(C(F)(F)F)cc3)nc(=O)[nH]2)cs1 | TOP2A | decatenation |  | 125 µM |  | mean decatenated DNA | 26.7% |
| Nc1nc2c(nc(Br)n2[C@@H]2O[C@@H]3COP(=O)(O)O[C@H]3[C@H]2O)c(=O)[nH]1 | anti-cGMP antibody | antibody binding, competitive cGMP EIA |  | concentration not given, acetylated samples | reference: EC50 cGMP over EC50 cpd, higher = stronger binding | relative binding affinity | 4.98 |
| O=c1nc(SCc2ccc(C(F)(F)F)cc2)nc(SCc2ccc3sccc3c2)[nH]1 | TOP2A | decatenation |  | 125 µM, replicate 1 |  | decatenated DNA | 0.17% |
| NCCCCC(=O)O | Sodium- and chloride-dependent taurine transporter (SLC6A6, Homo sapiens, UniProt P31641, G62A) | binding, microscale thermophoresis |  | 488 nM, room temperature, with: 50 nM labelled protein | higher = more binding | normalised MST signal | -0.0175 |

A few entries again:
| SMILES | target | assay | system | setting | how to read | measurement | result |
| --- | --- | --- | --- | --- | --- | --- | --- |
| O=C(O)C1=CCNCC1 | BEST2 | whole-cell patch clamp | HEK293 transiently expressing channel | concentration not given, membrane potential -20 mV |  | current density | -35 pA/pF and -53.5 pA/pF and -49.4 pA/pF and -87 pA/pF and -38.2 pA/pF |
| O=C(COP(=O)(O)O)[C@@H](O)[C@H](O)[C@H](O)COP(=O)(O)O | HMGCS1 (Homo sapiens, UniProt Q01581) | thermal proteome profiling | HepG2 cell lysate | concentration not given, 57 over 37 °C, mean | reference: compound over control | thermal stability ratio | 0.604 |
| O=C(O)[C@@H]1CCCN1c1ncnc2[nH]cnc12 (racemic) | Histone-lysine N-methyltransferase SETDB1, triple tudor domain (SETDB1, Homo sapiens, UniProt Q15047) | binding, affinity selection mass spectrometry |  |  | reference: other proteins in batch | log fold enrichment | -0.00111 |
| CC[n+]1c(-c2ccccc2)c2cc(N)ccc2c2ccc(N)cc21 | T1, DNA junction | fluorescence enhancement |  | 20 °C, Mg2+ 12.5 mM, ethidium displacement |  | binding | binds |
